Measured values collected from several papers.
Every numbered part comes from another study and shows a few of its results, in no order.
UniProt Q9UQM7, sequence (whole entry, looked up): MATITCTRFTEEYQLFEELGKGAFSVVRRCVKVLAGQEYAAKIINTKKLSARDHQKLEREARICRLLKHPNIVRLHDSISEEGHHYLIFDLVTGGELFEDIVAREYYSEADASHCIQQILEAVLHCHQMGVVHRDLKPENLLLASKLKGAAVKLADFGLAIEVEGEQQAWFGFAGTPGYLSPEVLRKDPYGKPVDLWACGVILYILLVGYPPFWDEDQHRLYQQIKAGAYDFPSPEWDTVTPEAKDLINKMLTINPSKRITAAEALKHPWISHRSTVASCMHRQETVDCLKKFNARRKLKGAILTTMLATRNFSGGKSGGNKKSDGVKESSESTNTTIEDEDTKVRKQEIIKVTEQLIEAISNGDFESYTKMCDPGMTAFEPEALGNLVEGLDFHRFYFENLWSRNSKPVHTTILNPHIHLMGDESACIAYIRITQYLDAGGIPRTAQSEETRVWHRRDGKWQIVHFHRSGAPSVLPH
UniProt Q6ZN16, sequence (whole entry, looked up): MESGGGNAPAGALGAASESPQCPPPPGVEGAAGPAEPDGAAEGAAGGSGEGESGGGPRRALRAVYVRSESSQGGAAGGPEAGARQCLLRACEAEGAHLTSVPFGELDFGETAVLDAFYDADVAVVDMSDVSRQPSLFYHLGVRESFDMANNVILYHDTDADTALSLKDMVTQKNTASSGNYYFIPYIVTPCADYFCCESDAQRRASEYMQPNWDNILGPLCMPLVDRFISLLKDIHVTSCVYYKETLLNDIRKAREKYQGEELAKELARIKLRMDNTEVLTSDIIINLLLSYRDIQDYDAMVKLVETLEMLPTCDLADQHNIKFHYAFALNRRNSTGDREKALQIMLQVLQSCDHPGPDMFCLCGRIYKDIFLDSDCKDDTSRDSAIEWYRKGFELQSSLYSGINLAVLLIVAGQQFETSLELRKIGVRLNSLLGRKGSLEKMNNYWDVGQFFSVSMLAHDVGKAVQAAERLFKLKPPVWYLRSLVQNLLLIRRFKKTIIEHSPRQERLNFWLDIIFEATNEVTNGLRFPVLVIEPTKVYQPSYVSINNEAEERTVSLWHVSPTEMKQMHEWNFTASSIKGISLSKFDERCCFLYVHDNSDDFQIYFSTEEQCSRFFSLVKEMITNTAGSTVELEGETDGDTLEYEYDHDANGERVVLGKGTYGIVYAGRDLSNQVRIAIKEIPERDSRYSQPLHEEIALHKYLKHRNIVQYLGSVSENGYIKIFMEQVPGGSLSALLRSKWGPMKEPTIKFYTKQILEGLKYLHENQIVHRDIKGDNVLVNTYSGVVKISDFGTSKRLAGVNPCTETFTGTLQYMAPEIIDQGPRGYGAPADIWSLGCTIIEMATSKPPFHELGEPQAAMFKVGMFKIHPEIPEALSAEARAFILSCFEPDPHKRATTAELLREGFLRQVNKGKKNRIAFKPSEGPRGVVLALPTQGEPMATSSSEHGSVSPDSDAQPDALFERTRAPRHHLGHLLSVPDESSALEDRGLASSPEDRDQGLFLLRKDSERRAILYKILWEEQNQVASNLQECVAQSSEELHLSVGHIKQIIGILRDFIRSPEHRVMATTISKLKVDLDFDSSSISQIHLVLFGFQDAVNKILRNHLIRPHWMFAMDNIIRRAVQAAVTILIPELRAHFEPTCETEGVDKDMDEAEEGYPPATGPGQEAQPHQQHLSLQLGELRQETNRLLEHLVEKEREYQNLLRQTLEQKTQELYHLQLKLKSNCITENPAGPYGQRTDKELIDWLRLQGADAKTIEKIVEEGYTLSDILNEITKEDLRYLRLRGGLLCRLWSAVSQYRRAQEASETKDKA
UniProt Q9H2G2, sequence (whole entry, looked up): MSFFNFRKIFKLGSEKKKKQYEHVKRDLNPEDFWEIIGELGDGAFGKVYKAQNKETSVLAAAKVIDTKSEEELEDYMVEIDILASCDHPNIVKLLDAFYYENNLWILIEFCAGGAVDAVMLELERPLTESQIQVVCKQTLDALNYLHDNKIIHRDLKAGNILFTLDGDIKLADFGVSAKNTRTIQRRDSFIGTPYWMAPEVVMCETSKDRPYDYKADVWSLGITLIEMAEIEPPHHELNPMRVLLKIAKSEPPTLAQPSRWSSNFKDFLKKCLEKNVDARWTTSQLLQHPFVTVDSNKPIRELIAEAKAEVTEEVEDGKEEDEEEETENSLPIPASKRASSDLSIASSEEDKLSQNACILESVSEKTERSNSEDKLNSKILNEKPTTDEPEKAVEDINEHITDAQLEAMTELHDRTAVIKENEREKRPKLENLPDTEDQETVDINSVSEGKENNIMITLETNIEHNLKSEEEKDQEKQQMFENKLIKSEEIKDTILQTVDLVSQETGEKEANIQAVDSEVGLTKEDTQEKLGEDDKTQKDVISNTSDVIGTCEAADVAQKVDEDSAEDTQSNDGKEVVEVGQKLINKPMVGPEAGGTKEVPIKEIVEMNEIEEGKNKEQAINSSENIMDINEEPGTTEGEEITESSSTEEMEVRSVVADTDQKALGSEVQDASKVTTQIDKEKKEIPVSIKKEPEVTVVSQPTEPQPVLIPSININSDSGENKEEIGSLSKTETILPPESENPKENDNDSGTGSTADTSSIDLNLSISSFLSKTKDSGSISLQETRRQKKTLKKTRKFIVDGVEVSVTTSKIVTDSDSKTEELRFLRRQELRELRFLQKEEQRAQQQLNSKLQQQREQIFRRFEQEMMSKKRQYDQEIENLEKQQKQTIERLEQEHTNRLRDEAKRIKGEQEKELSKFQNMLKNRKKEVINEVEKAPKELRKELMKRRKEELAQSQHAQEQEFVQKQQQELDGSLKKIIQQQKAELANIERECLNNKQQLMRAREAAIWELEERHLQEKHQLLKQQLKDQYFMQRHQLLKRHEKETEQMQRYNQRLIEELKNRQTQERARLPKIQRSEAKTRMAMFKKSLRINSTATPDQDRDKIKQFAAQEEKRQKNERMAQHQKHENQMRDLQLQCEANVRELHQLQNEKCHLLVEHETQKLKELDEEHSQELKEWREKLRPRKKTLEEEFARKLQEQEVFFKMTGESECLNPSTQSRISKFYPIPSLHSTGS
UniProt Q8IW41, sequence (whole entry, looked up): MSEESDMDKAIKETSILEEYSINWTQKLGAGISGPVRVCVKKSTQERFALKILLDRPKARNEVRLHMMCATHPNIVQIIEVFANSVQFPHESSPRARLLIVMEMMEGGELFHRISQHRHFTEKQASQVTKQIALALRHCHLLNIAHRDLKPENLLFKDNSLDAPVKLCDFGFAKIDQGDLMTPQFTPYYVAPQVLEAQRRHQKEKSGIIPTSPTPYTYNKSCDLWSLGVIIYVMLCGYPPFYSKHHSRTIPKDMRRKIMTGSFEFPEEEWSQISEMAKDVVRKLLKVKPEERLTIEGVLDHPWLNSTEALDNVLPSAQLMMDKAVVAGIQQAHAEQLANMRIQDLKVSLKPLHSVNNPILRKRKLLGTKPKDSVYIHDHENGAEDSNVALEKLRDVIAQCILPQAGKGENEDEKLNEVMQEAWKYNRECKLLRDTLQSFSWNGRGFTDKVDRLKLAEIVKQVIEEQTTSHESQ
UniProt Q00526, sequence (whole entry, looked up): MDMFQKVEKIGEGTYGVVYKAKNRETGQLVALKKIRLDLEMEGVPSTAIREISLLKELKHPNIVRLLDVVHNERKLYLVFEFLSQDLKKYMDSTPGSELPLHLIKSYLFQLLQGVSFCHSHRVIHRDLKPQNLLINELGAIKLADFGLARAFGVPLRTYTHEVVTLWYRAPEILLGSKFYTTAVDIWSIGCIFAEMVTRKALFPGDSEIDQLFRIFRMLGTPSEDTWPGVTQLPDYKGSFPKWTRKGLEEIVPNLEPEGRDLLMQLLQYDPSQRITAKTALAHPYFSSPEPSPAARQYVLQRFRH
UniProt P22607, sequence (whole entry, unmodified, looked up): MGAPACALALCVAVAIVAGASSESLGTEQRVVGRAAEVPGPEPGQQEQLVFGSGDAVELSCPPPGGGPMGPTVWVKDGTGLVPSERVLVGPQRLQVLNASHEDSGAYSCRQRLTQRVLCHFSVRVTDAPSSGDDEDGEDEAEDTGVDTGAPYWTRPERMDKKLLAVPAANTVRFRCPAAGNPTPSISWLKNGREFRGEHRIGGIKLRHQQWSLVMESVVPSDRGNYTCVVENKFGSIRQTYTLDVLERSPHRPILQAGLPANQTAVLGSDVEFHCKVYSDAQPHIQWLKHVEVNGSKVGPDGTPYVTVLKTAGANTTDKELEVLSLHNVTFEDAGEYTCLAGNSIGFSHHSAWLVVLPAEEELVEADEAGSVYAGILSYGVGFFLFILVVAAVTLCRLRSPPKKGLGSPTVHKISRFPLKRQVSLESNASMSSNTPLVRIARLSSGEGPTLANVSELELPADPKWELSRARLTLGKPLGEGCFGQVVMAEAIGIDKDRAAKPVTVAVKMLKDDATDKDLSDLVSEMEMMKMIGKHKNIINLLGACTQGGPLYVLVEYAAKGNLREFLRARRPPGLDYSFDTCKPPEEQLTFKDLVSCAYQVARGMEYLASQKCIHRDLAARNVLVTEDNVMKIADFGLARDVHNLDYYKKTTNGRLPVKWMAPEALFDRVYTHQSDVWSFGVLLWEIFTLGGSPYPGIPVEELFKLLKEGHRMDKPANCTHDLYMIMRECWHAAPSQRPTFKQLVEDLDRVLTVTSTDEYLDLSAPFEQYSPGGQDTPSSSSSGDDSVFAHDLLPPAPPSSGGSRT
UniProt Q9BXA7, sequence (whole entry, looked up): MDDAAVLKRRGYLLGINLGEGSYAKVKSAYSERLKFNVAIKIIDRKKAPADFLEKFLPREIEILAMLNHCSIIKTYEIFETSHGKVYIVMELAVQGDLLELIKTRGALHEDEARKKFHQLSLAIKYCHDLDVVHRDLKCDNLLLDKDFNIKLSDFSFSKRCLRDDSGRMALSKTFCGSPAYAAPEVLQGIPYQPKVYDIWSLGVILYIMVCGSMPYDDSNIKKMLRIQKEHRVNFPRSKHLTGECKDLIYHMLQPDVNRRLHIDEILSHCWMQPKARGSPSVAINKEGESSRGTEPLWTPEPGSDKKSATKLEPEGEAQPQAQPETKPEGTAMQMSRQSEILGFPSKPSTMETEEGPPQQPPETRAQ

Sample 1 — method: competition with immobilised ligand; concentration: 0.1 µM
Compound: CS(=O)(=O)N1CCCC(NC(=O)[C@H](CCC2CCCCC2)NC(=O)c2ccc(CNc3ncnc4c3nnn4-c3ccccc3)cc2)C1 (some centres unmarked)
target	effect on	remaining binding
CAMK2A (Homo sapiens, UniProt Q9UQM7)	cell-free assay	100%
PIK3CA (Homo sapiens, UniProt P42336, E542K)	cell-free assay	64%
CLK3 (Homo sapiens, UniProt P49761)	cell-free assay	85%
Tyrosine-protein kinase JAK3, JH1 (JAK3, Homo sapiens, UniProt P52333)	cell-free assay	100%
BRSK1 (Homo sapiens, UniProt Q8TDC3)	cell-free assay	100%
SLK (Homo sapiens, UniProt Q9H2G2)	cell-free assay	100%
STK35 (Homo sapiens, UniProt Q8TDR2)	cell-free assay	100%
EPHB6 (Homo sapiens, UniProt O15197)	cell-free assay	100%
TSSK1B (Homo sapiens, UniProt Q9BXA7)	cell-free assay	85%
MAP3K15 (Homo sapiens, UniProt Q6ZN16)	cell-free assay	74%
CDK3 (Homo sapiens, UniProt Q00526)	cell-free assay	82%
MAPKAPK5 (Homo sapiens, UniProt Q8IW41)	cell-free assay	100%
CDK14 (Homo sapiens, UniProt O94921)	cell-free assay	100%
BLK (Homo sapiens, UniProt P51451)	cell-free assay	100%
EGFR (Homo sapiens, UniProt P00533)	cell-free assay	100%
GRK7 (Homo sapiens, UniProt Q8WTQ7)	cell-free assay	100%
IKBKB (Homo sapiens, UniProt O14920)	cell-free assay	100%
FGFR3 (Homo sapiens, UniProt P22607, G697C)	cell-free assay	83%
EIF2AK1 (Homo sapiens, UniProt Q9BQI3)	cell-free assay	81%
Myosin-IIIb (MYO3B, Homo sapiens, UniProt Q8WXR4)	binding	100%
Tyrosine-protein kinase ABL1, phosphorylated (ABL1, Homo sapiens, UniProt P00519, T315I)	cell-free assay	100%

Sample 2 — species: mouse; matrix: microsomes or S9; concentration: 2 µM; time: 0.5 h
SMILES	remaining compound [%]
Brc1ccc2nc(-c3cccs3)cn2c1	45.7
Cc1ccc(CSC2=NS(=O)(=O)c3ccccc32)cc1	0.201
Cc1c(C(=O)Nc2cc(Cl)ccc2OCC2CCCO2)oc2c1C(=O)CC(C)(C)C2 (centres unmarked)	79.7
Cc1ccc(N2CCCS2(=O)=O)cc1NS(=O)(=O)CC12CCC(CC1=O)C2(C)C (centres unmarked)	3.19
COC[C@@H]1[C@@H](NC(=O)c2c(OC)cc(=O)n3c2CCNCC3)[C@@H]2CCO[C@H]12	83.3
COc1ccc(N(C)S(=O)(=O)c2cc3c(cc2Cl)Oc2ccccc2NC3=O)cc1	64
Cc1nnc(C)n1/N=C/c1ccc(Br)cc1	85.8
c1ccc2c(c1)ccc1nnc(-c3c[nH]c4ccccc34)n12	4.33
CC(C)N(C(=O)CO/C(=C(/c1ccccc1)S(=O)(=O)c1ccccc1)c1ccccc1)c1ccccc1	5.06
CCN(CC)C(=O)c1nc2cc(-c3ccc(C#N)cc3)sc2c(=O)[nH]1	76.8
CCc1ccc(C2c3cccn3-c3sc4c(c3CN2C(=O)Nc2ccc(OC)c(OC)c2)CCCC4)cc1 (centres unmarked)	84
CC(C)(C)OC(=O)NCCNC(=O)Cc1cc(=O)oc2cc(O)ccc12	78
c1ccc(-n2ncc3c(Nc4cccc5ccccc45)ncnc32)cc1	0.229

Sample 3 — effect on: enzyme activity; action: inhibitor; concentration: 10 µM
Target: Calcium/calmodulin-dependent protein kinase type II subunit alpha (CAMK2A, Homo sapiens, UniProt Q9UQM7)
SMILES	inhibition
COc1cc(O)cc(O)c1C(=O)/C=C/c1ccc(O)cc1	-20%
COc1ccc(C)cc1	-27%
COc1c(/C=C/C(=O)c2ccc(O)c(CC=C(C)C)c2)ccc(O)c1O	-36%
CC(C)=CCC[C@@](C)(O)[C@H]1CC[C@]2(C)[C@@H]1[C@H](O)C[C@@H]1[C@@]3(C)C[C@@H](O)[C@H](O[C@@H]4O[C@H](CO)[C@@H](O)[C@H](O)[C@H]4O[C@@H]4O[C@H](CO)[C@@H](O)[C@H](O)[C@H]4O)C(C)(C)[C@@H]3CC[C@]12C	47%
C=C[C@H]1[C@H](O[C@@H]2O[C@H](CO)[C@@H](O)[C@H](O)[C@H]2O)OC=C2C(=O)N3CCc4c([nH]c5ccccc45)[C@@H]3C[C@H]21	-15%
CC(C)CCC[C@@H](C)[C@H]1CC[C@H]2C3=C(CC[C@]12C)[C@@]1(C)CC[C@H](O)CC1=CC3	-19%
CCc1cccc2c3c([nH]c12)C(CC)(CC(=O)O)OCC3 (centres unmarked)	-11%
Cc1c[nH]c2ccccc12	-49%
COc1ccc(-n2nc(C(N)=O)c3c2C(=O)N(c2ccc(N4CCCCC4=O)cc2)CC3)cc1	4%

Sample 4 — effect on: enzyme activity; action: inhibitor; concentration: 0.5 µM; relative to: control
Target: Mitogen-activated protein kinase 12 (MAPK12, Homo sapiens, UniProt P53778)
Target sequence (P53778 1-367): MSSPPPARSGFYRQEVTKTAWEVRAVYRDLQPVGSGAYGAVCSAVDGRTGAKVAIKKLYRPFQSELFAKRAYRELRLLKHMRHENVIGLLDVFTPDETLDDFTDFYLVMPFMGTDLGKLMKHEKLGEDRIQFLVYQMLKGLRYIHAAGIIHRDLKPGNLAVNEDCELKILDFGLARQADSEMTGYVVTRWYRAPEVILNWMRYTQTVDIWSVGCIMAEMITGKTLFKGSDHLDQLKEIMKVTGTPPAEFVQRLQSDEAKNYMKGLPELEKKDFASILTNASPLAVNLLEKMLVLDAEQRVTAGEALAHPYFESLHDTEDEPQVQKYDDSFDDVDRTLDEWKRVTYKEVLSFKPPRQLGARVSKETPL
SMILES	remaining activity
COc1cc2ncnc(Nc3cccc(Cl)c3)c2cc1OC	98.5%
c1ccc(-c2[nH]ncc2-c2ccnc3ccccc23)nc1	106%
CCOc1nc(NC(=O)Cc2cc(OC)ccc2OC)cc(N)c1C#N	94.7%
O=C1c2ccccc2-c2n[nH]c3cccc1c23	93.5%
Cc1nc2cc3nc(-c4cccs4)cnc3cc2n1C	103%
CN([C@@H](Cc1ccc(OS(=O)(=O)c2cccc3cnccc23)cc1)C(=O)N1CCN(c2ccccc2)CC1)S(=O)(=O)c1cccc2cnccc12	92.2%
Cc1cn(-c2cc(NC(=O)c3ccc(C)c(Nc4nccc(-c5cccnc5)n4)c3)cc(C(F)(F)F)c2)cn1	96.9%
COc1cc2c(cc1OC)-c1[nH]nc(Nc3cccc(F)c3)c1C2	101%
Cn1nc2c3c(cccc31)C(=O)c1ccccc1-2	93.8%
Cc1cc2ncc(-c3ccccc3)nc2cc1C	87.3%
CCN(CC)C(=O)c1ccc(Nc2nc(OCC3CCCCC3)c3[nH]cnc3n2)cc1	99.4%
O=C1C(Cl)=C(N2C(=O)CCC2=O)C(=O)c2ccccc21	100%
N#Cc1c(NC(=O)c2cccc3ccccc23)sc2c1CCCC2	95.6%
COc1cc2ncnc(Nc3ccc(O)c(Br)c3)c2cc1OC	92.8%
O=C(Nc1cccc(Nc2nccc(Nc3cccc(C(F)(F)F)c3)n2)c1)C1CC1	99.7%
CCN(CC)CCNC(=O)c1c(C)[nH]c(/C=C2\C(=O)Nc3ccc(Cl)cc32)c1C	96.6%
O=c1cc(-c2cccc3c2Sc2ccccc2S3)oc(N2CCOCC2)c1	114%
CCN(CC)CCNC(=O)c1c(C)[nH]c(/C=C2\C(=O)Nc3ccc(F)cc32)c1C	95.8%
Ic1cccc(CSc2nnc(-c3ccncc3)o2)c1	93%
CN(C)C[C@H]1CCn2c(c(C3=C(c4cn(C)c5ccccc45)C(=O)NC3=O)c3ccccc32)C1	102%
c1ccc(-c2cnc(Nc3ccc(OCCN4CCCC4)cc3)s2)cc1	93.6%
N#C/C(=C\c1ccc(O)c(O)c1)C(=O)NCc1ccccc1	94.2%

Repeated from above (sample 2):
SMILES	remaining compound [%]
Brc1ccc2nc(-c3cccs3)cn2c1	45.7
Cc1ccc(CSC2=NS(=O)(=O)c3ccccc32)cc1	0.201
Cc1c(C(=O)Nc2cc(Cl)ccc2OCC2CCCO2)oc2c1C(=O)CC(C)(C)C2 (centres unmarked)	79.7
Cc1ccc(N2CCCS2(=O)=O)cc1NS(=O)(=O)CC12CCC(CC1=O)C2(C)C (centres unmarked)	3.19
COC[C@@H]1[C@@H](NC(=O)c2c(OC)cc(=O)n3c2CCNCC3)[C@@H]2CCO[C@H]12	83.3
COc1ccc(N(C)S(=O)(=O)c2cc3c(cc2Cl)Oc2ccccc2NC3=O)cc1	64
Cc1nnc(C)n1/N=C/c1ccc(Br)cc1	85.8
c1ccc2c(c1)ccc1nnc(-c3c[nH]c4ccccc34)n12	4.33
CC(C)N(C(=O)CO/C(=C(/c1ccccc1)S(=O)(=O)c1ccccc1)c1ccccc1)c1ccccc1	5.06
CCN(CC)C(=O)c1nc2cc(-c3ccc(C#N)cc3)sc2c(=O)[nH]1	76.8
